Experimental data pooled from the literature.
Every numbered part comes from another study and shows a few of its results, in no order.
UniProt Q96RR4, sequence (whole entry, looked up): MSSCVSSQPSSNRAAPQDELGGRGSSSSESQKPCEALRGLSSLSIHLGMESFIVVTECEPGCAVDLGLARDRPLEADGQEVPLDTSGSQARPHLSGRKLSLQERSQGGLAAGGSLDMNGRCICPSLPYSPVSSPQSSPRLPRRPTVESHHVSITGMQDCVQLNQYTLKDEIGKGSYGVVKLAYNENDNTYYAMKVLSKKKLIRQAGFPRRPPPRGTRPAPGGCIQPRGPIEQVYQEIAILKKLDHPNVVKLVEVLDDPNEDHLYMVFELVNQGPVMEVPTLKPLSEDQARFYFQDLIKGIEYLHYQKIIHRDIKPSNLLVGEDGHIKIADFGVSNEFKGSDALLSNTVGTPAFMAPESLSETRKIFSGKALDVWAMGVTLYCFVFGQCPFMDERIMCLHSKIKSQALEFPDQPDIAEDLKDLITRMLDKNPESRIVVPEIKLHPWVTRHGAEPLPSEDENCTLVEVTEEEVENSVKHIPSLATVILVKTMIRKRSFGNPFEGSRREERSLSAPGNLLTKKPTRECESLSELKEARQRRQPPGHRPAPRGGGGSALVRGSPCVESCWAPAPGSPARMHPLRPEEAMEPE
UniProt Q13557, sequence (whole entry, looked up): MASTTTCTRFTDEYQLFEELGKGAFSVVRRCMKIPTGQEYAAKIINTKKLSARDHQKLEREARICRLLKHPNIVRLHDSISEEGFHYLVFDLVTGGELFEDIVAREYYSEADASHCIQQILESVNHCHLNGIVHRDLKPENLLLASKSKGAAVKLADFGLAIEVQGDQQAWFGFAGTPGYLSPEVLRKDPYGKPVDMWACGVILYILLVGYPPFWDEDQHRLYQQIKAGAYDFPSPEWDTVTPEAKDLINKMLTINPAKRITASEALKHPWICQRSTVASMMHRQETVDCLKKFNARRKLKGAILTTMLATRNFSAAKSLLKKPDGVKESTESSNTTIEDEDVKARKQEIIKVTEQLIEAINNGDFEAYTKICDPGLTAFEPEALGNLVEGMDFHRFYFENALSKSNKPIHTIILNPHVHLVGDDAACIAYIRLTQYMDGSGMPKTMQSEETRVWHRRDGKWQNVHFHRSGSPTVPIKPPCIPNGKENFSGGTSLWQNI
UniProt Q8NEB9, sequence (whole entry, looked up): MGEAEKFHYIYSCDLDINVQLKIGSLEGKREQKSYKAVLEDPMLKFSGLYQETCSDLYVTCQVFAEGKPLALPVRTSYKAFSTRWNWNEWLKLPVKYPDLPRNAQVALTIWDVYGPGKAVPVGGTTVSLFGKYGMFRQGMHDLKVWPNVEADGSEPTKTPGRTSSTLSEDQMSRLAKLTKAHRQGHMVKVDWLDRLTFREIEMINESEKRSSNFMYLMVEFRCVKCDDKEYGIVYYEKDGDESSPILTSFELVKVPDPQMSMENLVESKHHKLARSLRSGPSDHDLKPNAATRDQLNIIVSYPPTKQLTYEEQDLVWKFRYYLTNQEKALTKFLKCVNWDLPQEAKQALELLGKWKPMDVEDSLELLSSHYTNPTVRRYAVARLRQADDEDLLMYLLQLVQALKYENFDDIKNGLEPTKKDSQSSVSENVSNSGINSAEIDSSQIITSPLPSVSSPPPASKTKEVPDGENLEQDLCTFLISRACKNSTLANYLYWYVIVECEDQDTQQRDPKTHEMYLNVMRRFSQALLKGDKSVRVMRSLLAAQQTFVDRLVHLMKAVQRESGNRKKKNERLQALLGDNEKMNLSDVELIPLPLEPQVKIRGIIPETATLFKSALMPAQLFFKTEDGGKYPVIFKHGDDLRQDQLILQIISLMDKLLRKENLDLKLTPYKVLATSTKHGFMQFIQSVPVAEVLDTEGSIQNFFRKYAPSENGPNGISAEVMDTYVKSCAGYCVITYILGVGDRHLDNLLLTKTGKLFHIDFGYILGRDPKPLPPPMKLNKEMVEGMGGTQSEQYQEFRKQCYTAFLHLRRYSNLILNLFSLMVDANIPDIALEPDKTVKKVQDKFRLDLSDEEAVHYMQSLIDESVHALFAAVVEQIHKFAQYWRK
UniProt P27037, sequence (whole entry, looked up): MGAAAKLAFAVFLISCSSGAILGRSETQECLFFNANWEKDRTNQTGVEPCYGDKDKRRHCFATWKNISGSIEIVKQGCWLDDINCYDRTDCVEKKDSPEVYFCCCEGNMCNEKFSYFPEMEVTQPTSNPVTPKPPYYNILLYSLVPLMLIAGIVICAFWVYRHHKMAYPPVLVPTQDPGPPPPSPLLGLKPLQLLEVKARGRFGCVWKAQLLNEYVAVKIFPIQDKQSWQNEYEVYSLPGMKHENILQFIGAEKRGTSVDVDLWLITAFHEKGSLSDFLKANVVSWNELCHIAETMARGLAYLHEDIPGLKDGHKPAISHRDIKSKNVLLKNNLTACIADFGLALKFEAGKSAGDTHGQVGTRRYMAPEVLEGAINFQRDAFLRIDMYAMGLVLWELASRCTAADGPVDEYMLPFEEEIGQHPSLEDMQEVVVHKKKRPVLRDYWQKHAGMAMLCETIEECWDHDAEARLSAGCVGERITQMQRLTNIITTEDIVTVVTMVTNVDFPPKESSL
UniProt P17948, sequence (whole entry, looked up): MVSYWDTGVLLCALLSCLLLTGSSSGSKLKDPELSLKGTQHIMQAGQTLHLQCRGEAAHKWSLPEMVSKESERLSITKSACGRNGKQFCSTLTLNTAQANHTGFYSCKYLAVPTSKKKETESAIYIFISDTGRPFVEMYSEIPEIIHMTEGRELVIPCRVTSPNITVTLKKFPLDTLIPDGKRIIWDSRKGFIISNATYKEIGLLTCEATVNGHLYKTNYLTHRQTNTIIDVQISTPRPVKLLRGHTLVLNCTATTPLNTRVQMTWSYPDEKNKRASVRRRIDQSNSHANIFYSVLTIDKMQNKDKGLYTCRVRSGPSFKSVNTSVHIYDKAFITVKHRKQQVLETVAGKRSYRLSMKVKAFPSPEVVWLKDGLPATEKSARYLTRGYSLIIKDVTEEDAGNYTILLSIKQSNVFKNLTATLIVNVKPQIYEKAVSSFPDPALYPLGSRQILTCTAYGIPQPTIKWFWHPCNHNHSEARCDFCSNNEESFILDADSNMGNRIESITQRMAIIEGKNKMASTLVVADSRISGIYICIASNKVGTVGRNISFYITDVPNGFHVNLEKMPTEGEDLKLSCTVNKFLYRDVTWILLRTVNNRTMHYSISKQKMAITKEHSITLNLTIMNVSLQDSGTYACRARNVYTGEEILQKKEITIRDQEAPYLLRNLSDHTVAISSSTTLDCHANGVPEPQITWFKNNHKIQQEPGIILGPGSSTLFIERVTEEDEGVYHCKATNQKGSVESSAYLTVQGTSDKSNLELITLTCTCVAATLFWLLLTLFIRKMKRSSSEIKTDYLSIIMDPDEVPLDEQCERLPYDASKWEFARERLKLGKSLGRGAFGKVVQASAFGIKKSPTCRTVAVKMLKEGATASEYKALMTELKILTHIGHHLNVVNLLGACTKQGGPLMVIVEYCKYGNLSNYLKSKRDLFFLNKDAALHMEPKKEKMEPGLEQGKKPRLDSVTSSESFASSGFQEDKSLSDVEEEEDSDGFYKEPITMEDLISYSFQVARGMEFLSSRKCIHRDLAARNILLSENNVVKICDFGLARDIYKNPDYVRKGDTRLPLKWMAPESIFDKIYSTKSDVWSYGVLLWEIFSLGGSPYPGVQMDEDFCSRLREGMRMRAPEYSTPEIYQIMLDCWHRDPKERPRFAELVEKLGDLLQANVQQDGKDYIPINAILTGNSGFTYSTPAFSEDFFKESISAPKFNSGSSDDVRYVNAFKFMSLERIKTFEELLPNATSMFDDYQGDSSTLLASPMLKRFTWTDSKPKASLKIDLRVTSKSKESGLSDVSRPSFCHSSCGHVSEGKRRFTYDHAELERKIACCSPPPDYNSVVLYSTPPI
UniProt P57078, sequence (whole entry, looked up): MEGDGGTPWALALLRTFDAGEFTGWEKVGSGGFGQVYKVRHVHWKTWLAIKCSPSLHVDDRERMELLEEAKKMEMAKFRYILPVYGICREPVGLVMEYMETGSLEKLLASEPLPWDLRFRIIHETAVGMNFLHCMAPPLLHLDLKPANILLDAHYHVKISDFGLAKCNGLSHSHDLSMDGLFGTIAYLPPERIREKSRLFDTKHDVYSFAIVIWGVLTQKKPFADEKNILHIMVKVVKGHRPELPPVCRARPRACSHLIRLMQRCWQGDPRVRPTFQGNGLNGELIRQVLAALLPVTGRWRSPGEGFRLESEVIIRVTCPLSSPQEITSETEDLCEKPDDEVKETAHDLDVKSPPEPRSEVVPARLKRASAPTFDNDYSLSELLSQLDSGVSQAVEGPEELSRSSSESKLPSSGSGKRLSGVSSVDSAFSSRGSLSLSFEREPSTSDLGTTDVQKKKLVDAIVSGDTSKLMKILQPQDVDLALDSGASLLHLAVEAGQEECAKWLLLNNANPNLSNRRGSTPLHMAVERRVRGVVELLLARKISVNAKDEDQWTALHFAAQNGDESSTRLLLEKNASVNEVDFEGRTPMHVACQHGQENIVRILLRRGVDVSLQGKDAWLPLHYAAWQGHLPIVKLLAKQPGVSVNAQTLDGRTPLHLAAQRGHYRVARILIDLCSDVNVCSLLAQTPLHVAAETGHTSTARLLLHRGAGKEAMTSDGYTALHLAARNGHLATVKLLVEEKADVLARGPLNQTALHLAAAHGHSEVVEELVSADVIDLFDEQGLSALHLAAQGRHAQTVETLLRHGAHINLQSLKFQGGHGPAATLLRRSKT

Study 1
Target: PABPC1L2, full length, GST fusion (mouse, UniProt A0ABA7IW68)
Method: RNAcompete
Molecule type: RNA
Medium: in vitro
Concentration: 20 nM
Setting: 7-mer, probes averaged, single round
Baseline: mean of 7-mers
Direction: higher = stronger binding
Construct (chain): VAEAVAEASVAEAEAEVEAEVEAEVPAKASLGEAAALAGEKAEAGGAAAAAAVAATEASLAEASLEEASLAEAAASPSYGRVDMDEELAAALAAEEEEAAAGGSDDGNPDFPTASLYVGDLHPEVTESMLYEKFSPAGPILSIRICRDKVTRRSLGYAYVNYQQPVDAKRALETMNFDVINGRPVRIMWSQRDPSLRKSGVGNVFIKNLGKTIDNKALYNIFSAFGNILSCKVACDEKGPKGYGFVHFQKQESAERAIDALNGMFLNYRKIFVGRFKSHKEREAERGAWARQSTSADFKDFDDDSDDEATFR
Strand	7-mer Z-score
GUCCUCU	-0.333
CUGUCGA	-0.329
AAUCUGA	0.0678
GAGUGUG	-0.0971
GCCCCAU	-0.505
CUAUCGC	-0.277
CACAGGG	0.0334
CGAGCCA	-0.182

Study 2
Cell line: HaCaT
Concentration: 100 µM
Time: 36 h
Compound	viability [%]
CC(C(O)c1ccc(O)cc1)N1CCC(Cc2ccccc2)CC1 (stereo not drawn)	16.7
CC(C)OC(=O)C(C(=O)OC(C)C)=C1SC=CS1	28
CO/N=C(\C(=O)N[C@@H]1C(=O)N2C(C(=O)O)=C(CSc3nc(=O)c(=O)[nH]n3C)CS[C@H]12)c1csc(N)n1	110

Study 3
Organism: Sarcocystis neurona
Read-out: parasite growth
Concentration: 10 µM
Setting: secondary screen
Compound	inhibition [%]
CCCCC[C@H](O)/C=C/[C@H]1[C@H](O)CC(=O)[C@@H]1CCCCCCC(=O)O	-50.8
Cc1c(C(=O)NN2CCCCC2)nn(-c2ccc(Cl)cc2Cl)c1-c1ccc(I)cc1	94.2
Cc1nc2ccc(CN(C)c3ccc(C(=O)N[C@@H](CCC(=O)O)C(=O)O)s3)cc2c(=O)[nH]1	-43.1

Study 4
Species: human
Medium: microsomes or S9
Concentration: 2 µM
Time: 0.5 h
SMILES	remaining compound
CS(=O)(=O)N1CCC[C@H]1C(=O)N[C@H]1C[C@H](c2cc(=O)[nH]c(C3CC3)n2)C1	> 99%
COCCOc1cc(=O)n2c(c1C(=O)Nc1cccc(OC)c1)CCOCC2	43.8%
CC(C)(C)c1ccc(OCCOCCOc2ccc(C(C)(C)C)cc2O)c(O)c1	21.2%

Study 5
Structure (SMILES): Cc1nc(Cc2cccc(C(F)(F)F)c2)sc1-c1ccc(C(N)=O)nc1
Read-out: cell-free assay
Method: competition with immobilised ligand
Concentration: 1 µM
target	remaining binding [%]
Serine/threonine-protein kinase TNNI3K (TNNI3K, Homo sapiens, UniProt Q59H18)	100
Receptor-interacting serine/threonine-protein kinase 4 (RIPK4, Homo sapiens, UniProt P57078)	83
ALK tyrosine kinase receptor (ALK, Homo sapiens, UniProt Q9UM73, C1156Y)	68
Discoidin domain-containing receptor 2 (DDR2, Homo sapiens, UniProt Q16832)	100
Tyrosine-protein kinase ABL1, phosphorylated (ABL1, Homo sapiens, UniProt P00519)	98
Activin receptor type-2A (ACVR2A, Homo sapiens, UniProt P27037)	85
Tyrosine-protein kinase Lyn (LYN, Homo sapiens, UniProt P07948)	95
Calcium/calmodulin-dependent protein kinase type II subunit delta (CAMK2D, Homo sapiens, UniProt Q13557)	100
Inhibitor of nuclear factor kappa-B kinase subunit epsilon (IKBKE, Homo sapiens, UniProt Q14164)	76
Phosphatidylinositol 3-kinase catalytic subunit type 3 (PIK3C3, Homo sapiens, UniProt Q8NEB9)	100
Calcium/calmodulin-dependent protein kinase kinase 2 (CAMKK2, Homo sapiens, UniProt Q96RR4)	91
Receptor-type tyrosine-protein kinase FLT3 (FLT3, Homo sapiens, UniProt P36888, D835Y)	92
Cyclin-G-associated kinase (GAK, Homo sapiens, UniProt O14976)	91
Vascular endothelial growth factor receptor 1 (FLT1, Homo sapiens, UniProt P17948)	100
Receptor-type tyrosine-protein kinase FLT3 (FLT3, Homo sapiens, UniProt P36888)	87
Dual serine/threonine and tyrosine protein kinase (DSTYK, Homo sapiens, UniProt Q6XUX3)	78
Mast/stem cell growth factor receptor Kit (KIT, Homo sapiens, UniProt P10721, D816H)	100
Tyrosine-protein kinase Fer (FER, Homo sapiens, UniProt P16591)	100

Single results of other studies
Compound	test	test system	conditions	scale	measurement	value
CC(=O)N[C@@H](Cc1c[nH]c2ccccc12)C(=O)N[C@@H](CCC(=O)C=[N+]=[N-])C(=O)OC(C)C	refers to: S-carboxymethyl-L-cysteine	mouse, EL4 tumour-bearing, EL4 tumour	dose not given	baseline: vehicle	log2 fold change	0.412

Repeated from above (study 1):
Strand	7-mer Z-score
GAGUGUG	-0.0971
GCCCCAU	-0.505
CUAUCGC	-0.277
CACAGGG	0.0334
